Measured values gathered from unrelated publications.
Compare with care: the assays were run in different laboratories.
EGFR L858R/T790M: Epidermal growth factor receptor (EGFR, Homo sapiens, UniProt P00533, L858R/T790M)
Cnr2: Cannabinoid receptor 2 (Cnr2, Mus musculus, UniProt P47936)
Sequence of UniProt P47936 (whole entry, looked up): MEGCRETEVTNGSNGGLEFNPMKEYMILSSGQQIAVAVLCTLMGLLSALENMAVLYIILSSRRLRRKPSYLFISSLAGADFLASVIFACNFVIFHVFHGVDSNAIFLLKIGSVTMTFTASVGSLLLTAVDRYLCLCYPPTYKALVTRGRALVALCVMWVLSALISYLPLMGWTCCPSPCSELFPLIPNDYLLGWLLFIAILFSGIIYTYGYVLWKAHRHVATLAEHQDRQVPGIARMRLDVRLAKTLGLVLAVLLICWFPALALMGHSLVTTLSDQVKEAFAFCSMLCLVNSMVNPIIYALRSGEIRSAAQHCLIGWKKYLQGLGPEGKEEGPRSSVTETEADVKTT
ST6GAL1: Beta-galactoside alpha-2,6-sialyltransferase 1 (ST6GAL1, Homo sapiens, UniProt P15907)
Sequence of UniProt P15907 (whole entry, looked up): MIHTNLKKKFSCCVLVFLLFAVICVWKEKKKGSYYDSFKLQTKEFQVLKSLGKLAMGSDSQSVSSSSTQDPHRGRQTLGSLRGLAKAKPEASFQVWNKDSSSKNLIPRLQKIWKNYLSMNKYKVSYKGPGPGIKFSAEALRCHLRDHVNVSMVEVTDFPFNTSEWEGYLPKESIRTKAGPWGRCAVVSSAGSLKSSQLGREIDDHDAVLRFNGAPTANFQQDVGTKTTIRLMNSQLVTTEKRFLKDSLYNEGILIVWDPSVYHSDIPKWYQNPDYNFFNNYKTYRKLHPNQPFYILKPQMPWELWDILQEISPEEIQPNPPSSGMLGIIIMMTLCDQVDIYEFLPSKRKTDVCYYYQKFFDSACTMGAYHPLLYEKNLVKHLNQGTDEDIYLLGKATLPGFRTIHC
Sequence of UniProt P29597 (whole entry, looked up): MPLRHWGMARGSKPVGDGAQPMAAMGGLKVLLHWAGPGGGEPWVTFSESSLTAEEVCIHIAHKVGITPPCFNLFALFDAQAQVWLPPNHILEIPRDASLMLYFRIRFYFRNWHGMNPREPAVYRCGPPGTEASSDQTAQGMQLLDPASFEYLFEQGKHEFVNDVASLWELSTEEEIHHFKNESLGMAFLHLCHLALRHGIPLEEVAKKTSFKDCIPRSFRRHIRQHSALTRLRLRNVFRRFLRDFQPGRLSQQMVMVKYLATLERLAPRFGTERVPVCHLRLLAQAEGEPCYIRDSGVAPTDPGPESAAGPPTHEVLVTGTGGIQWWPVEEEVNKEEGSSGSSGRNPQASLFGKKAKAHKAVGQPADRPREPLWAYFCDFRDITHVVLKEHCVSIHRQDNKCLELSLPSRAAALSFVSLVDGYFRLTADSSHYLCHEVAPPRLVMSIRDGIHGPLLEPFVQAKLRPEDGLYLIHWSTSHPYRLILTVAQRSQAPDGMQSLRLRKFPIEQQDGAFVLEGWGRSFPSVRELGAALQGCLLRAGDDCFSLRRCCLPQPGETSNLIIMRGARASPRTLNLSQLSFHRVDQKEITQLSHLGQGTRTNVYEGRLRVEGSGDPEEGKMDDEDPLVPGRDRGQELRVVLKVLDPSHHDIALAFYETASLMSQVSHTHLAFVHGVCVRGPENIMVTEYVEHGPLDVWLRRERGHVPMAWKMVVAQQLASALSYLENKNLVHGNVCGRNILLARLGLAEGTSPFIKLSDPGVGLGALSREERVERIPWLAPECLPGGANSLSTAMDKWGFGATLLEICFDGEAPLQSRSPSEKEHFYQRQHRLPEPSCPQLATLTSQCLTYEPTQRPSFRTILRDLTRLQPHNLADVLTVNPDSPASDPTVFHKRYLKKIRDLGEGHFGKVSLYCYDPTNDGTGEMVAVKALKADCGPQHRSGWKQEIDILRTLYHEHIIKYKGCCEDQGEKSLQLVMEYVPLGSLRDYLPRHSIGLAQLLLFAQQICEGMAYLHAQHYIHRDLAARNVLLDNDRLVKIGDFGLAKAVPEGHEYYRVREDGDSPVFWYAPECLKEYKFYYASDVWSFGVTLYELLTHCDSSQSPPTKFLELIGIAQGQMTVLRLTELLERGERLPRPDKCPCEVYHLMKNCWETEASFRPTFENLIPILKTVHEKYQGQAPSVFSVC
Sequence of UniProt Q9HC52 (whole entry, looked up): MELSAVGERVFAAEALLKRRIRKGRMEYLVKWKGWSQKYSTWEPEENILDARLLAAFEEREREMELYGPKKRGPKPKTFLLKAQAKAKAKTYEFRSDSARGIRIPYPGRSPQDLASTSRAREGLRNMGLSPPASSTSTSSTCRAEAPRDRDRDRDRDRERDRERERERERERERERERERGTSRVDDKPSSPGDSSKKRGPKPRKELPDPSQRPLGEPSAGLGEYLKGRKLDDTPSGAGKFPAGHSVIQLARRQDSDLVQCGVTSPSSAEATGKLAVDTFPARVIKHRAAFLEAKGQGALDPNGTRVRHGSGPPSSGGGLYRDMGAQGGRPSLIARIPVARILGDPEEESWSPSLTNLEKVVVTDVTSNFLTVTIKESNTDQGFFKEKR
Sequence of UniProt P21980 (whole entry, looked up): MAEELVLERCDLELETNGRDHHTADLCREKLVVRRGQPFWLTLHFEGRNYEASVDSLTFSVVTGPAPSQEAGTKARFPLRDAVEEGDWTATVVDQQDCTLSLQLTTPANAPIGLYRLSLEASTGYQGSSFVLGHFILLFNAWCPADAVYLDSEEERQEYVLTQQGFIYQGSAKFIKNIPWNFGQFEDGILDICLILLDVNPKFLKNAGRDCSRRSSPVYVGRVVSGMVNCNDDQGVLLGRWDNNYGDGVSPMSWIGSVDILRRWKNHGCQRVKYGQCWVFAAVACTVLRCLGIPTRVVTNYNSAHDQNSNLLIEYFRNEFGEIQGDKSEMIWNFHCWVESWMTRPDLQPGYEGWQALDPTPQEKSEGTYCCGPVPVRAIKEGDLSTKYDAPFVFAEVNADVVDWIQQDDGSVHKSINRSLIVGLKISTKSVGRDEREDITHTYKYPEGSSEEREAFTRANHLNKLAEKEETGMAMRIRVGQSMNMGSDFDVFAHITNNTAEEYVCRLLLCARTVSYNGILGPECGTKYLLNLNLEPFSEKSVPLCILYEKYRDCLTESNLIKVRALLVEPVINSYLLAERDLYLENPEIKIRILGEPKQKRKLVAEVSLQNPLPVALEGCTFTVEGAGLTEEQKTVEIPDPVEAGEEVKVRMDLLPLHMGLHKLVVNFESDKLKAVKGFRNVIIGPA
Sequence of UniProt P49840 (whole entry, looked up): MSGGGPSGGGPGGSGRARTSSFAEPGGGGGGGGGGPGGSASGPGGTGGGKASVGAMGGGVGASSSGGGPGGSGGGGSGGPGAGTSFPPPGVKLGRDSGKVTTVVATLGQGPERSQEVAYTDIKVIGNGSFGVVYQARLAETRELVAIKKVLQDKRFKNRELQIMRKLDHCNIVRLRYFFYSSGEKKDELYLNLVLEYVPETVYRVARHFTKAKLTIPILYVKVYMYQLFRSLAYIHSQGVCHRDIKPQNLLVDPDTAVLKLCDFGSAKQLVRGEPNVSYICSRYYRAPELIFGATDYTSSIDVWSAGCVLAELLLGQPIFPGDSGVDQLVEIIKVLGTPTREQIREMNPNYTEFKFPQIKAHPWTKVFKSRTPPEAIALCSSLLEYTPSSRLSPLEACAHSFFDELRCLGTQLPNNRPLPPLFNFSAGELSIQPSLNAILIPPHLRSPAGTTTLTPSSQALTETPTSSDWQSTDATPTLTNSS
Sequence of UniProt P30405 (whole entry, looked up): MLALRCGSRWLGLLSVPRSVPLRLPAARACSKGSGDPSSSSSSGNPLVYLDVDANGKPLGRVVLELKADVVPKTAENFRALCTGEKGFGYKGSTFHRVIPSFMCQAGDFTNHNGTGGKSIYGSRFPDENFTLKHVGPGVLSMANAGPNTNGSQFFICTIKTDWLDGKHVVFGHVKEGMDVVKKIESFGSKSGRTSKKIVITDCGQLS
Sequence of UniProt Q14123 (whole entry, looked up): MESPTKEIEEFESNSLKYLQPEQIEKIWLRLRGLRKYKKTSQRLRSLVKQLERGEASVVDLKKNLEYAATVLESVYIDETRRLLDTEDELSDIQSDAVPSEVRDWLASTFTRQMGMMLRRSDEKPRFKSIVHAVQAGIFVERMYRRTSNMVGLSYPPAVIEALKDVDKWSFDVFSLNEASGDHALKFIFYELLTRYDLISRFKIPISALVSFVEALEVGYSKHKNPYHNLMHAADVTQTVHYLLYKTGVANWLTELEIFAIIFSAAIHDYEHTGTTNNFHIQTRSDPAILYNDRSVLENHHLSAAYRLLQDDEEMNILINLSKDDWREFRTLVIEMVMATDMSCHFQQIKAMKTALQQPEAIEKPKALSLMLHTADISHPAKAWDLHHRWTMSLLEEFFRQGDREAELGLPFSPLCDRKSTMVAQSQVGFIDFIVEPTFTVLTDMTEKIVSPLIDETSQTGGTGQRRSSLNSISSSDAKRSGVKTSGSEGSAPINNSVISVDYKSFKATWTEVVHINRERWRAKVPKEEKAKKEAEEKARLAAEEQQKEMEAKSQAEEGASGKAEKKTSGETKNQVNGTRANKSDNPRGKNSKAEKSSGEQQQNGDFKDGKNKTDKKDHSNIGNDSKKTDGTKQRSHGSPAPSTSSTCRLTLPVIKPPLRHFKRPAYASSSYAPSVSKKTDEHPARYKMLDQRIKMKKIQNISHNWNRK
Sequence of UniProt P62593 (whole entry, looked up): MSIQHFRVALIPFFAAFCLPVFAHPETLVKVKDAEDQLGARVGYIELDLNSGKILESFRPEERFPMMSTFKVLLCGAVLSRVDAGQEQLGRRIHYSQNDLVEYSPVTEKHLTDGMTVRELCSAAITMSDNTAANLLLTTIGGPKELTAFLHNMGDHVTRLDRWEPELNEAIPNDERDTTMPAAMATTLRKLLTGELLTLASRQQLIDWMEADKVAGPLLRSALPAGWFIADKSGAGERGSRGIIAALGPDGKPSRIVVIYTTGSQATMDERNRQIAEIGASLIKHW

Cc1cc(S(=O)(=O)Nc2ncccn2)c(F)cc1N(C)C1CCN([C@H](C)c2ccccc2)CC1
selectivity ratio (SCN8A (Homo sapiens, UniProt Q9UQD0); ion current, inhibitor, automated patch clamp; reference: other NaV subtypes over NaV1.6): > 100 fold

Nc1nc(Cl)nc2c1ncn2Cc1cc(OCC(F)F)cc(OC(F)F)c1
selectivity ratio (PDE1C (Homo sapiens, UniProt Q14123); enzyme activity, inhibitor; reference: PDE1C over PDE8A1): 562 fold

COCCCN1CCc2c(Cc3ccc(Cl)cc3)[nH]c3c(OC(F)F)ccc(c23)C1=O
selectivity ratio (PDE3A (Homo sapiens, UniProt Q14432); enzyme activity; reference: IC50 PDE5A1 over PDE3A): > 1200

CCC1(c2cccc(-c3cn(C)nc3C)c2)C2=C(Nc3n[nH]cc31)C(F)C(C)(C)CC2=O (single isomer, unassigned)
selectivity ratio (GSK3A (Homo sapiens, UniProt P49840); tau Thr231 phosphorylation; HEK293 expressing human tau; reference: IC50 GSK3β over IC50 GSK3α): 37 fold

C[C@H](NC(=O)[C@H](Cc1ccccc1)NC(=O)c1ccc(Br)cc1)C(=O)N[C@H](C(=O)N[C@@H](CCCC[N+](C)(C)C)C(=O)N[C@@H](CO)C(N)=O)C1CCCC1
selectivity ratio (Chromobox protein homolog 8 (Homo sapiens, UniProt Q9HC52); competitive fluorescence polarization; reference: Cbx7 over Chromobox protein homolog 8): 30 fold

CCCCCCCCCCCCCCOc1c(O)cc(C(=O)O[C@@H]2Cc3c(O)cc(O)cc3O[C@@H]2c2cc(O)c(O)c(O)c2)cc1O
selectivity ratio (EGFR L858R/T790M; kinase activity; reference: EGFR T790M/L858R over wild-type EGFR): 1.49

Cc1cc2c(cc1Cl)Cc1c(C(=O)NC3C4(C)CCC(C4)C3(C)C)nn(-c3ccc(Cl)cc3Cl)c1-2 (stereo not shown)
selectivity ratio (Cnr2; radioligand displacement; mouse brain and spleen homogenates; added: [3H]CP-55,940; reference: Ki CB1 over Ki CB2): 196

C[C@H](CCC(=O)N[C@H](CC(c1c[nH]c2ccccc12)c1c[nH]c2ccccc12)C(=O)O)[C@H]1CC[C@H]2[C@@H]3CC[C@@H]4C[C@H](O)CC[C@]4(C)[C@H]3CC[C@]12C
selectivity ratio (ST6GAL1; reference: ST3GAL1 IC50 over ST6GAL1 IC50): > 44

CCCCCCCCCCCCOc1c(O)cc(C(=O)OC2Cc3c(O)cc(O)cc3OC2c2cc(O)c(O)c(O)c2)cc1O (stereo not shown)
selectivity ratio (EGFR L858R/T790M; kinase activity; reference: EGFR T790M/L858R over wild-type EGFR): 1.16

O=C(Oc1nsnc1N1CCOCC1)c1ccccc1
selectivity ratio (Beta-lactamase TEM (bla, Escherichia coli, UniProt P62593); enzyme activity, colorimetric nitrocefin; reference: IgA1 protease over bla): ~3 fold

CC(=O)O[C@H]1OC[C@@H]2C=C([C@@]3(C)CCCC(C)(C)C3)CC[C@H]12
selectivity ratio (PPIF (Homo sapiens, UniProt P30405); PPIase enzyme activity, inhibitor; reference: PPIF over cyclophilin A): ~18 fold

Cc1cc2c(cc1Cl)-c1c(c(C(=O)NC3C4(C)CCC(C4)C3(C)C)nn1-c1ccc(Cl)cc1Cl)C2 (stereo not shown)
selectivity ratio (Cnr2; radioligand displacement; mouse brain and spleen homogenates; added: [3H]CP-55,940; reference: Ki CB1 over Ki CB2): 36

C=CC(=O)Nc1cccc(-c2cnc3[nH]cc(C(=O)NC(C)(C)C)c3n2)c1
selectivity ratio (TYK2 (Homo sapiens, UniProt P29597); enzyme activity, inhibitor; reference: JAK3 over TYK2): 282 fold

C[C@H](CCC(=O)N[C@H](CC(c1c[nH]c2ccc(Cl)cc12)c1c[nH]c2ccc(Cl)cc12)C(=O)O)[C@H]1CC[C@H]2[C@@H]3CC[C@@H]4C[C@H](O)CC[C@]4(C)[C@H]3CC[C@]12C
selectivity ratio (ST6GAL1; reference: ST3GAL1 IC50 over ST6GAL1 IC50): > 76

COC(=O)C=CCCC(NC(=O)c1ccncc1C(=O)O)C(=O)NC(C(=O)N1CC(=O)CC1C(=O)NC(C(=O)NC(C(N)=O)C1CCCCC1)C1CCCCC1)C(C)(C)C (stereo not shown)
selectivity ratio (TGM2 (Homo sapiens, UniProt P21980); transamidation activity; reference: TG2 over FXIII-A2): 19

CCc1c(Cl)cccc1N1CCN(C[C@H](F)CCNC(=O)c2cc3ccccc3[nH]2)CC1
selectivity ratio (dopamine D3 and D2 receptors; binding; reference: Ki D2 over Ki D3): 217 fold

A few entries again:
C[C@H](CCC(=O)N[C@H](CC(c1c[nH]c2ccc(Cl)cc12)c1c[nH]c2ccc(Cl)cc12)C(=O)O)[C@H]1CC[C@H]2[C@@H]3CC[C@@H]4C[C@H](O)CC[C@]4(C)[C@H]3CC[C@]12C
selectivity ratio (ST6GAL1; reference: ST3GAL1 IC50 over ST6GAL1 IC50): > 76

Cc1cc2c(cc1Cl)Cc1c(C(=O)NC3C4(C)CCC(C4)C3(C)C)nn(-c3ccc(Cl)cc3Cl)c1-2 (stereo not shown)
selectivity ratio (Cnr2; radioligand displacement; mouse brain and spleen homogenates; added: [3H]CP-55,940; reference: Ki CB1 over Ki CB2): 196
